Assay results collected from several papers.
Parts stem from different laboratories: compare values within a part only.

Series 1
Target: Serine/threonine-protein kinase D2 (PRKD2, Homo sapiens, UniProt Q9BZL6)
Chain of UniProt Q9BZL6 (whole entry, looked up): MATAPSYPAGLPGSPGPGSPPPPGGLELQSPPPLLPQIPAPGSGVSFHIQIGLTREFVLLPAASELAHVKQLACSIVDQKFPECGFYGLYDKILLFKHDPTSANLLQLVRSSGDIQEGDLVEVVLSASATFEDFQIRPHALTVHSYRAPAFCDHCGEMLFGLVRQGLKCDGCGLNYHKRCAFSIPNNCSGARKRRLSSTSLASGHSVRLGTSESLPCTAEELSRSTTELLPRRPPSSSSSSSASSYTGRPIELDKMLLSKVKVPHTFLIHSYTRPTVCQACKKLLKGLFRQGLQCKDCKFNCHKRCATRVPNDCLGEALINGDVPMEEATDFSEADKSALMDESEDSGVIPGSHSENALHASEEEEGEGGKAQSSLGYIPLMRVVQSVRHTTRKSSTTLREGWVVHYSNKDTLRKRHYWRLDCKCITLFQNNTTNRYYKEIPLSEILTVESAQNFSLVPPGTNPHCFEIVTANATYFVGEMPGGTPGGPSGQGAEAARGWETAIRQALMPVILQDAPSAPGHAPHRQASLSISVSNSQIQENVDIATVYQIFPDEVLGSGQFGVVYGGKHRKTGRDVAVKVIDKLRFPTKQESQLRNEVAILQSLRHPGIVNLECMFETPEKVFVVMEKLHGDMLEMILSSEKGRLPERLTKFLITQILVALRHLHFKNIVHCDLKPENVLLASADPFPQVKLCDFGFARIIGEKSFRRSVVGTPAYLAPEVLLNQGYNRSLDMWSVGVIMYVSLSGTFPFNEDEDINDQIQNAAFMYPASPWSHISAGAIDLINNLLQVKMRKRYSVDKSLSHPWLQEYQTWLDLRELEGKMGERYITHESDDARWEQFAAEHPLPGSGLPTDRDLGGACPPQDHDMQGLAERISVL
Observed: enzyme activity
Action: inhibitor
Tested at: 0.5 µM
Relative to: control
SMILES	remaining activity [%]
Ic1cccc(CSc2nnc(-c3ccncc3)o2)c1	97.1
c1ccc(-c2[nH]ncc2-c2ccnc3ccccc23)nc1	66.9
Cn1nc2c3c(cccc31)C(=O)c1ccccc1-2	77
O=C(Nc1cccc(Nc2nccc(Nc3cccc(C(F)(F)F)c3)n2)c1)C1CC1	101
CCOc1nc(NC(=O)Cc2cc(OC)ccc2OC)cc(N)c1C#N	91.4
COc1cc2ncnc(Nc3ccc(O)c(Br)c3)c2cc1OC	69.7
O=C(NC(NC(=S)Nc1ccc(F)c([N+](=O)[O-])c1)C(Cl)(Cl)Cl)C(c1ccccc1)c1ccccc1 (centres unmarked)	107
Cc1cn(-c2cc(NC(=O)c3ccc(C)c(Nc4nccc(-c5cccnc5)n4)c3)cc(C(F)(F)F)c2)cn1	88.7
CCN(CC)CCNC(=O)c1c(C)[nH]c(/C=C2\C(=O)Nc3ccc(Cl)cc32)c1C	11.9
Cc1nc2cc3nc(-c4cccs4)cnc3cc2n1C	106
N#C/C(=C\c1ccc(O)c(O)c1)C(=O)NCc1ccccc1	101
O=c1cc(-c2cccc3c2Sc2ccccc2S3)oc(N2CCOCC2)c1	105
N#Cc1c(NC(=O)c2cccc3ccccc23)sc2c1CCCC2	126
O=C1C(Cl)=C(N2C(=O)CCC2=O)C(=O)c2ccccc21	95.7
c1ccc(-c2cnc(Nc3ccc(OCCN4CCCC4)cc3)s2)cc1	82.2
CN(C)C[C@H]1CCn2c(c(C3=C(c4cn(C)c5ccccc45)C(=O)NC3=O)c3ccccc32)C1	97.6
COc1cc2c(cc1OC)-c1[nH]nc(Nc3cccc(F)c3)c1C2	96.3
Nc1cccc(-c2cc3c(Oc4cccc(O)c4)ncnc3[nH]2)c1	81.7
CCN(CC)C(=O)c1ccc(Nc2nc(OCC3CCCCC3)c3[nH]cnc3n2)cc1	67
CCN(CC)CCNC(=O)c1c(C)[nH]c(/C=C2\C(=O)Nc3ccc(F)cc32)c1C	21.1
COc1cc2ncnc(Nc3cccc(Cl)c3)c2cc1OC	92.3
O=C1c2ccccc2-c2n[nH]c3cccc1c23	33.6
Cc1cc2ncc(-c3ccccc3)nc2cc1C	96.5
CN([C@@H](Cc1ccc(OS(=O)(=O)c2cccc3cnccc23)cc1)C(=O)N1CCN(c2ccccc2)CC1)S(=O)(=O)c1cccc2cnccc12	100

Series 2
Target: Sigma non-opioid intracellular receptor 1 (SIGMAR1, Homo sapiens, UniProt Q99720)
Chain of UniProt Q99720 (whole entry, looked up): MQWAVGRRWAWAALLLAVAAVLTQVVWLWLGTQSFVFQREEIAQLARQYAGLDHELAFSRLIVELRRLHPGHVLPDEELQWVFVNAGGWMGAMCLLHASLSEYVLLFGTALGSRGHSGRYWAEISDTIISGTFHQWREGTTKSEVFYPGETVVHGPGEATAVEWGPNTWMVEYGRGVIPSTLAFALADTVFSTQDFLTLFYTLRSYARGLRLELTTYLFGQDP
Observed: binding
Technique: radioligand binding
Tested at: 10 µM
Compound	inhibition
CN(C)C(=O)Cn1cc(-c2nc([C@@](C)(c3ccc(-c4cnc(N)nc4)cc3)C3CC3)no2)cn1	-25.2%
C[C@H](NC(=O)c1cnc2n1[C@](C)(Cc1ccc(C#N)cc1)C(=O)N2c1cc(Cl)c(F)c(Cl)c1)C(=O)NC1(c2ccccn2)CC1	-6.44%
CNC(=O)c1ccc(Nc2ncc(C(F)(F)F)c(NCc3nccnc3N(C)S(C)(=O)=O)n2)cc1	40.1%
O=C(Nc1cnc(Oc2ccc(F)cc2)nc1)N1CCc2ncccc2[C@@H]1c1ccc(F)cc1	64.4%
CCCOc1ccc([C@H]2[C@H](C(=O)O)[C@@H](c3ccc4c(c3)OCO4)CN2CC(=O)Nc2c(CC)cccc2CC)cc1	4.29%
COCc1nc2cnc3cc(-c4c(C)noc4C)c(OC[C@H]4CCNC4)cc3c2n1[C@H](C)c1ccccc1	38.5%
O=C(Nc1ccc(-n2nc(-c3cccnc3)cc2C(F)(F)F)cn1)c1ccc(-c2ccccc2)c(F)c1	-17.2%
CCOC(=O)c1cc2cc(-c3cc(C(=O)NCc4ccc(C(=O)O)cc4)nn3C)ccc2[nH]1	14.6%
Cc1c[nH]c2nccc(Oc3c(F)cc(Nc4cc(Cl)nc(N)n4)cc3F)c12	54.8%
Cc1c(NC(=O)c2cc(C(N)=O)nc3cc(F)ccc23)c(C(F)(F)F)nn1Cc1ccc(C(C)(C)C)cc1	6.28%
O=C(O)c1cc(-c2ccc(C3CCNCC3)cc2)c2ccc(-c3ccc(C(F)(F)F)cc3)cc2c1	84.9%
CC(C)(O)c1cncc(-c2nc3ccc(F)cc3n2C2CC2)c1	27.7%
CC1=C(C#N)[C@@H](c2ccc3[nH]nc(C)c3c2)C(C#N)=C(c2ccc(Cl)cc2)N1	14.6%
CC(=O)Nc1c(F)cc(C(=O)N[C@H]2CC[C@H](O)CC2)cc1O[C@@H](C)c1ccccc1	6.84%
Cc1nc(C2CCN(C(=O)c3ccc(OC(F)(F)F)cc3N)CC2)c2ncc(N3CCN(C)CC3)cc2n1	72.7%
CC(=O)c1c(NS(C)(=O)=O)c2cc(-c3ccc(Cl)cc3)c(-c3ccc(Cl)cc3Cl)nc2n(C)c1=O	-7.46%
Cc1cc(-n2nc(Cc3cc(F)cc(C(F)(F)F)c3)nc2C)ccc1C(N)=O	5.85%
Cc1cc(C)c(-n2ccn3nc(-c4cccnc4)cc23)cc1NC(=O)c1cc(C#N)cc(S(F)(F)(F)(F)F)c1	-4.84%
CC(=O)Nc1nc(CN2CCC[C@H](Cc3cc(C)nc(C)c3)C2)cs1	101%
Cc1nccc(COC(=O)N2C[C@@H]3[C@@H](CNC(=O)c4ccc5[nH]nnc5c4)[C@@H]3C2)n1	3.21%

Series 3
SMILES: CC(=O)N[C@@H](Cc1c[nH]c2ccccc12)C(=O)N[C@@H](CCC(=O)C=[N+]=[N-])C(=O)OC(C)C
Dose: dose not given
Relative to: vehicle
refers to	species	medium	log2 fold change
N('1)-acetylspermidine	mouse, EL4 tumour-bearing	EL4 tumour	-0.04
FGAR	mouse, EL4 tumour-bearing	EL4 tumour	4.11
imidazole lactate	Mus musculus	EL4 tumour	-1.13
3-hydroxyisobutyrate	mouse, EL4 tumour-bearing	EL4 tumour	-0.339
dihydrobiopterin	mouse, EL4 tumour-bearing	EL4 tumour	0.29
thioproline	mouse, EL4 tumour-bearing	EL4 tumour	-0.878
UDP-galactose	mouse, EL4 tumour-bearing	EL4 tumour	-1.33
hypotaurine	mouse, EL4 tumour-bearing	EL4 tumour	-2.22
N6-succinyladenosine	mouse, EL4 tumour-bearing	EL4 tumour	-0.114
N-acetylvaline	mouse, EL4 tumour-bearing	EL4 tumour	0.0342
alpha-tocotrienol	mouse, EL4 tumour-bearing	EL4 tumour	0.085
TMP	mouse, EL4 tumour-bearing	EL4 tumour	-0.593
pentose acid	Mus musculus	EL4 tumour	0.322
fructose 1,6-bisphosphate	mouse, EL4 tumour	tumour	0.676
phenylpyruvate	mouse, EL4 tumour-bearing	EL4 tumour	0.353

Series 4
Species: human
Medium: microsomes or S9
Tested at: 2 µM
Time: 0.5 h
Compound	remaining compound [%]
c1ccc(-c2ccc3c(C4CCCC4)cncc3c2)cc1	19.3
CC(=O)OCCNc1cnc(Cl)cc1Cn1c(C(=O)c2cc(C)cc(C)c2)c(C(C)C)c(=O)[nH]c1=O	0.766
CCOC(=O)N1CCC(NC(=O)COCC(=O)Nc2ccc(C#N)cc2)CC1	65.5
CCc1ccc(OCC(=O)c2cc(CC)c(OC)cc2OC)cc1	6.74
O=c1c(O)c(-c2ccccc2OC(F)F)oc2ccccc12	5.29
Cc1nc(C)c2c(C)c(CNCC(C)(C)N3CCOCC3)sc2n1	40.7
CCCOc1ccc(S(=O)(=O)n2nc(C)cc2C)cc1C	1.95
CC(C)n1ncc2c(=O)n(Cc3ncc(Cl)cc3Cl)cnc21	15.5
Cc1cc(C)cc(N/C(N)=N/Cc2nc(C(C)(C)C)cs2)c1	0.0686
O=C(O)c1nccnc1C(=O)Nc1nc(-c2cccs2)n[nH]1	95.6
CN1CC2(CCN(C(=O)NC3CCCCC3)CC2)CC1C(=O)N1CCOCC1 (centres unmarked)	83.5
O=C1c2ccccc2CN1C(c1cccc(F)c1)c1nc2cncnc2[nH]1 (centres unmarked)	62.1
O=C(Cn1nc2c(cc1=O)CCCCC2)Nc1nc[nH]n1	92.9
CN1CCCCCCN(S(=O)(=O)c2cccc(F)c2)CCC1=O	61.6
O=C1CC(c2ccccc2Cl)CC2=C1C(c1ccc3c(c1)OCO3)Nc1ccccc1N2 (centres unmarked)	2.85
